Published values collected from several papers.
Numbered parts are unrelated; each lists some results of a single study. Substitutions count along the parent as printed.

Block 1 — effect on: peptide-MHC binding; molecule type: peptide; concentration: concentration not given
Target: HLA class I histocompatibility antigen, A alpha chain, allele A*25:01 (Homo sapiens, UniProt P04439)
For `AFHQLVQVI`, binding read “inactive”.
`RQRHYFDSA` — result for binding: “inactive”.
`GFAIPIILK` — result for binding: “inactive”.
Under binding, `SVFALLPPQ` is recorded as “inactive”.
`TTEANAGQF`: binding “inactive”.
`MMWEINGPK` — result for binding: “inactive”.
For `LMLHQQYNQ`, binding read “inactive”.
`STGKSIKFK` — result for binding: “inactive”.

Block 2 — target: CCND2, cyclin fold, Cln2 fusion (human); method: yeast growth competition, sequencing; sample: yeast; notes: strong parent motif; reference: not given; direction: higher = stronger binding
Starting sequence: viral docking peptide; YKVKRRLVFGADD; partner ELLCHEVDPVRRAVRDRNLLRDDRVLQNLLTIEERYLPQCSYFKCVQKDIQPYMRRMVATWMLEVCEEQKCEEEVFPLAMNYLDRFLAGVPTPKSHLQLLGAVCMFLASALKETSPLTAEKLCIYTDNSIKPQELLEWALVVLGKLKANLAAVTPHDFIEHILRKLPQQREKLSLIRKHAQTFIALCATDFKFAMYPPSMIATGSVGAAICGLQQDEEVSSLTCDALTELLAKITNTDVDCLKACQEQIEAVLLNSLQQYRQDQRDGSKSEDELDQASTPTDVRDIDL
Under “normalised enrichment score”, `YKVKRRLVMGADD [F9M]` is recorded as 0.219.
Under “normalised enrichment score”, `YKVKRCLVFGADD [R6C]` is recorded as 0.592.
`YKVKRLLVFGADD [R6L]` — result for “normalised enrichment score”: 0.506.
For `YKVKRRLIFGADD [V8I]`, “normalised enrichment score” read 1.15.
For `YYVKRRLVFGADD [K2Y]`, “normalised enrichment score” read 0.538.
`YKVKRELVFGADD [R6E]`: “normalised enrichment score” 0.667.
Under “normalised enrichment score”, `YKVPRRLVFGADD [K4P]` is recorded as 1.01.
`YKYKRRLVFGADD [V3Y]` — result for “normalised enrichment score”: 0.81.

Block 3 — target: UBE2D4 UBC core domain (UniProt Q9Y2X8); method: yeast two-hybrid; sample: yeast; notes: mostly zero background; reference: not given; direction: higher = stronger interaction
B1: RNF186 RING domain (UniProt Q9NXI6); chain HSGSTECDLECLVCREPYSCPRLPKLLACQHAFCAICLKLLLCVQDNTWSITCPLCRKVTAVPGGLI
B2: MARCHF1 RING domain (UniProt Q8TCQ1); chain TAPRSQSRLSVCPSTQDICRICHCEGDEESPLITPCRCTGTLRFVHQSCLHQWIKSSDTRCCELCKYDFIMETKLKPLRKWE
B3: HLTF RING domain (UniProt Q14527); chain LILSSGSDEECAICLDSLTVPVITHCAHVFCKPCICQVIQNEQPHAKCPLCRNDIHEDNLLE
B4: ARIH2 RING domain (UniProt O95376); chain HVPTSHPPHHCAVCMQFVRKENLLSLACQHQFCRSCWEQHCSVLVKDGVGVGVSCMAQDCPLRTPEDFVF
B5: TRIM41 RING domain (UniProt Q8WV44); chain PVQTLQEEAVCAICLDYFTDPVSIGCGHNFCRVCVTQLWGGEDEEDRDELDREEEEEDGEEE
B6: ZMYND11 RING domain (UniProt Q15326); chain DEIDWETENHDWYCFECHLPGEVLICDLCFRVYHSKCLSDEFRLRDSSSPWQCPVCRSIKKKNTNKQEM
B7: TRIM11 RING domain (UniProt Q96F44); chain LSTNLQEEATCAICLDYFTDPVMTDCGHNFCRECIRRCWGQPEGPYACPECRELSPQRNLRP
Construct (chain): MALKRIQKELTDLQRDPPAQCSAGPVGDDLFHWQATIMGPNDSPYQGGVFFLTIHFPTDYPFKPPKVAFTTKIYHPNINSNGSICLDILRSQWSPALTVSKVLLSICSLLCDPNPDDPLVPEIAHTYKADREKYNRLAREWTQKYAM
`B1 (RNF186 RING domain)`: “lacZ reporter activity” 0.
`FAEQPSVKLCCQLCCSVFKDPVITTCGHTFCRRCALKSEKCPVDNVKLTVVVNNI (TRAF7 RING domain (UniProt Q6Q0C0))` — result for “lacZ reporter activity”: 0.
`B2 (MARCHF1 RING domain)`: “lacZ reporter activity” 0.
`B3 (HLTF RING domain)`: “lacZ reporter activity” 0.
`B4 (ARIH2 RING domain)` — result for “lacZ reporter activity”: 0.
Under “lacZ reporter activity”, `B5 (TRIM41 RING domain)` is recorded as 0.
`B6 (ZMYND11 RING domain)`: “lacZ reporter activity” 0.
Under “lacZ reporter activity”, `B7 (TRIM11 RING domain)` is recorded as 0.

Other studies, line by line
Under “log k' (60)”, `CCOC(=O)[C@@H]1CSCC(=O)N[C@@H](CC)C(=O)N(C)[C@@H](C)C(=O)N[C@@H](CC(C)C)C(=O)N(C)[C@H](C)C(=O)N(CC(C)C)CC(=O)N[C@H](CC(C)C)C(=O)N(C)[C@H](C)C(=O)N[C@@H](CC(C)C)C(=O)N1C` is recorded as 0.686 (PRP-column chromatography).

A few entries again (block 1):
`GFAIPIILK` — result for binding: “inactive”.
Under binding, `SVFALLPPQ` is recorded as “inactive”.
